Measured values pooled from the literature.
Each line is one published result; not all experiments were run side by side.

SMILES | cell line | test | conditions | CC50
N#C/C=C/C(=O)Oc1ccc(Br)cc1 | J774.A1 | cell growth or viability, resazurin | 24 h | 109 µM
COC(=O)C1C(C=NNCC(F)(F)F)=Cc2cc3c(cc2C1c1cc(OC)c(OC)c(OC)c1)OCO3 (stereo not drawn) | mouse Splenocyte | cell growth or viability, resazurin | 48 h | > 100 µM
C=C(C)[C@@H]1CCC=C2CC[C@]3(C)[C@H](CC[C@@H]4[C@@]5(C)CCCNC(C)(C)[C@@H]5CC[C@]43C)[C@H]21 | primary HFF | cell viability, CellTiter-Glo | HCMV AD169 assay setting | 15.3 µM
Cc1ccc(S(=O)(=O)Nn2c3c(cc(-c4nc5ccccc5s4)c2=O)CCCC3)cc1 | FRhK-4 | cell growth or viability, trypan blue | – | 320 µg/mL
C[C@H]1[C@H](C)CC[C@]2(CO)CC[C@]3(C)C(=CC[C@@H]4[C@@]5(C)CCCNC(C)(C)[C@@H]5CC[C@]43C)[C@H]12 | C-33 A | cell viability, CellTiter-Glo | – | 3.32 µM
CCc1ccc2c(c1O)C(c1ccc(OC)c(OC)c1OC)OC2=O (stereo not drawn) | J774.A1 | cell growth or viability, resazurin | 24 h | ≥ 290 µM
C=C1[C@@H](n2cnc3c(=O)[nH]c(N)nc32)C[C@H](O)[C@@]1(C#N)CO | HepG2.2.15 | cell growth or viability, CCK-8 | 14 days | > 100 µM
CCc1ccc2c(c1O)C(c1ccc(OC)c(OC)c1)OC2=O (stereo not drawn) | J774.A1 | cell growth or viability, resazurin | 24 h | ≥ 159 µM
CC1(C)CC[C@]2(CO)CC[C@]3(C)C(=CC[C@@H]4[C@@]5(C)CCCNC(C)(C)[C@@H]5CC[C@]43C)[C@@H]2C1 | primary HFF | cell viability, CellTiter-Glo | HSV-1 assay setting | 2.78 µM
CCCCCc1ccc2c(c1O)C(c1ccc(OC)c(OC)c1OC)OC2=O (stereo not drawn) | J774.A1 | cell growth or viability, resazurin | 24 h | ≥ 129 µM
O=c1c(-c2nc3ccccc3s2)cc2c(n1NS(=O)(=O)c1ccc(Cl)cc1)CCCCCC2 | BGM | cell growth or viability, trypan blue | – | 310 µg/mL
CCCCCc1ccc2c(c1O)C(c1ccc(OC)c(OC)c1)OC2=O (stereo not drawn) | J774.A1 | cell growth or viability, resazurin | 24 h | ≥ 561 µM
C=C(C)[C@@H]1CC[C@]2(C(N)=O)CC[C@]3(C)[C@H](CC[C@@H]4[C@@]5(C)CCCNC(C)(C)[C@@H]5CC[C@]43C)[C@@H]12 | primary HFF | cell viability, CellTiter-Glo | HCMV AD169 assay setting | 4.08 µM
COc1ccc(C2OC(=O)c3cccc(O)c32)c(OC)c1OC (stereo not drawn) | J774.A1 | cell growth or viability, resazurin | 24 h | ≥ 316 µM
COc1cc(C2c3cc4c(cc3C=C(C=O)C2C(=O)OCC=Cc2ccccc2)OCO4)cc(OC)c1OC (stereo not drawn) | mouse Splenocyte | cell growth or viability, resazurin | 48 h | > 100 µM
CCCc1ccc2c(c1O)C(c1ccc(OC)c(OC)c1OC)OC2=O (stereo not drawn) | J774.A1 | cell growth or viability, resazurin | 24 h | 94.5 µM
C=C(C)[C@@H]1CC[C@]2(C(=O)n3ccnc3)CC[C@]3(C)[C@H](CC[C@@H]4[C@@]5(C)CCCNC(C)(C)[C@@H]5CC[C@]43C)[C@@H]12 | primary HFF | cell viability, CellTiter-Glo | HSV-1 assay setting | 6.14 µM
COC(=O)C1C(C=NO)=Cc2cc3c(cc2C1c1cc(OC)c(OC)c(OC)c1)OCO3 (stereo not drawn) | mouse Splenocyte | cell growth or viability, resazurin | 48 h | > 100 µM
CCCc1ccc2c(c1O)C(c1ccc(OC)cc1)OC2=O (stereo not drawn) | J774.A1 | cell growth or viability, resazurin | 24 h | ≥ 335 µM
CCN(CC)CCCC(C)Nc1cc[n+]([Ru-]([OH2+])[OH2+])c2cc(Cl)ccc12.Cc1ccc(C(C)C)cc1.F[B-](F)(F)F.F[B-](F)(F)F (stereo not drawn) | Jurkat | cytotoxicity | – | 81 µM
Cc1ccc(S(=O)(=O)Nn2c3c(cc(-c4nc5ccccc5s4)c2=O)CCCCCC3)cc1 | FRhK-4 | cell growth or viability, trypan blue | – | 300 µg/mL
N#C/C=C/C(=O)Oc1cccc(F)c1 | J774.A1 | cell growth or viability, resazurin | 24 h | 34 µM
CC1(C)NCCC[C@]2(C)[C@H]3CC=C4[C@@H]5C[C@@](C)(CO)CC[C@]5(C)CC[C@@]4(C)[C@]3(C)CC[C@@H]12 | primary HFF | cell viability, CellTiter-Glo | HCMV AD169 assay setting | 18.6 µM
C=CCOC(=O)C1C(C=O)=Cc2cc3c(cc2C1c1cc(OC)c(OC)c(OC)c1)OCO3 (stereo not drawn) | mouse Splenocyte | cell growth or viability, resazurin | 48 h | > 100 µM

Some of these lines once more:
SMILES | cell line | test | conditions | CC50
COC(=O)C1C(C=NNCC(F)(F)F)=Cc2cc3c(cc2C1c1cc(OC)c(OC)c(OC)c1)OCO3 (stereo not drawn) | mouse Splenocyte | cell growth or viability, resazurin | 48 h | > 100 µM
C=C(C)[C@@H]1CCC=C2CC[C@]3(C)[C@H](CC[C@@H]4[C@@]5(C)CCCNC(C)(C)[C@@H]5CC[C@]43C)[C@H]21 | primary HFF | cell viability, CellTiter-Glo | HCMV AD169 assay setting | 15.3 µM
Cc1ccc(S(=O)(=O)Nn2c3c(cc(-c4nc5ccccc5s4)c2=O)CCCC3)cc1 | FRhK-4 | cell growth or viability, trypan blue | – | 320 µg/mL
